Results of several laboratories.
Compare with care: the assays were run in different laboratories. Several values in a cell are separate wells, animals, samples, runs or records. ± gives the spread as reported.
Genome polyprotein NS3 helicase domain: Genome polyprotein, NS3 helicase domain (Hepatitis C virus genotype 1b, UniProt Q9WMX2)
Glutamate receptor 2: Glutamate receptor 2 (Homo sapiens, UniProt P42262)
DRD3: D(3) dopamine receptor (DRD3, Homo sapiens, UniProt P35462)
KCNQ3/KCNQ2: Voltage-gated potassium channel, KQT; KCNQ2(Kv7.2)/KCNQ3(Kv7.3) (KCNQ3/KCNQ2, Homo sapiens, UniProt O43525+O43526)

| Structure (SMILES) | target | test | test system | conditions | inhibition |
| --- | --- | --- | --- | --- | --- |
| CC(=O)OCC1=C(C(=O)O)N2C(=O)[C@@H](NC(=O)Cc3cccs3)[C@H]2SC1 | Genome polyprotein NS3 helicase domain | DNA binding, inhibitor | hepatitis C virus | 100 µM, with: Cy5-dT15 DNA | 0% |
| CCCCCCCCCCCCCCCCCC1NCCc2cc(O)c(O)cc21 (centres unmarked) | tyrosinase | enzyme activity, inhibitor | – | 100 µM, with: L-DOPA substrate | 3.97 ± 2.23% |
| CC(C)NCC(O)COc1cccc2ccccc12 (centres unmarked) | Glutamate receptor 2 | ion current, negative allosteric modulator, SyncroPatch patch clamp | HEK293 | 30 µM | -5% |
| Clc1cncc(OC[C@H]2CN(CCN3CCc4ccccc43)CCO2)c1 | DRD3 | radioligand binding | – | concentration not given, with: [3H]N-methylspiperone | 1.3% |
| COc1ccc2[nH]c3c(c2c1)[C@H]1C[C@@H]([C@H]3C)N(Cc2ccccc2)C[C@]1(C)O | Kappa-type opioid receptor (OPRK1, Cavia porcellus, UniProt P41144) | binding, radioligand binding | guinea pig brain | 1 µM, with: [3H]U-69,593 | 0% |
| CC[C@@H]1[C@H](F)C(=O)N[C@@H]1COc1nccc2cc(C(N)=O)c(OC)cc12 | eIF-2-alpha kinase GCN2 (EIF2AK4, Homo sapiens, UniProt Q9P2K8) | ATP-site probe binding, ActivX profiling, refers to: GCN2 | THP-1 cell lysate | 0.01 mM, Lys1 site | -4.6% |
| [2H]c1cc(C)c(NC(=O)c2cnc(Nc3cc(N4CCCCC4)nc(C)n3)s2)c(Cl)c1 | Serine/threonine-protein kinase D1 (PRKD1, Homo sapiens, UniProt Q15139) | – | – | 0.01 µM | < 30% |
| CCCCCCCCC1NCCc2cc(O)c(O)cc21 (centres unmarked) | tyrosinase | enzyme activity, inhibitor | – | 100 µM, with: levodopa | 8.58 ± 2.53% |
| CC(C)N(CCC(=O)c1ccc2ccccc2c1)Cc1ccccc1 | Coagulation factor XIII A chain (F13A1, Homo sapiens, UniProt P00488) | crosslinking activity | – | 15 µM, without DTT | inhibited |
| Nc1nc(Cl)nc2c1ncn2[C@@H]1O[C@H](COP(=O)(O)OP(=O)(O)OP(=O)(O)O)[C@@H](O)[C@H]1O | Genome polyprotein NS3 helicase domain | DNA binding, inhibitor | hepatitis C virus | 100 µM, with: Cy5-dT15 DNA | 37% |
| Nc1c(Br)cc(Br)cc1CN[C@H]1CC[C@H](O)CC1 | KCNQ3/KCNQ2 | ion current, antagonist, SyncroPatch patch clamp | HEK293 | 3 µM | -5% |
| Cn1cc(-n2cnc3c(NCc4nc5cc(Cl)c(Cl)cc5[nH]4)nc(N4CCOCC4)nc32)cn1 | Cyclin-dependent kinase 12, with cyclin K (CDK12, Homo sapiens, UniProt Q9NYV4) | kinase activity, inhibitor, ADP-Glo | – | 0.0009 µM | 18.4% |
| CCc1oc2ccccc2c1C(=O)c1cc(Br)c(O)c(Br)c1 | Solute carrier family 22 member 12 (SLC22A12, Homo sapiens, UniProt Q96S37, H245A) | uric acid uptake | HEK293T transfected with SLC22A12 H245A | 0.5 µM, 10 min, 37 °C, with: [14C]urate 200 µM | 72.8% and 66.9% and 68.2% |
| CN1CCN(CCCOc2ccc(=O)n(-c3ccc(Cl)c(Cl)c3)n2)CC1 | alpha1 adrenergic receptor | radioligand binding | – | 1.0 µM | 22.5 ± 2.65% |
| Cc1ccc(CNC(=O)[C@H](CCc2ccccc2)NC(=O)[C@H](CCc2ccccc2)NC(=O)[C@H](CCc2ccccc2)NC(=O)c2cnc(C)cn2)cc1 | Tissue-type plasminogen activator (PLAT, Homo sapiens, UniProt P00750) | enzyme activity | – | 100 µM | 21% |
| COc1ccc2c(c1)C(=O)N(CCCN1CCN(c3ccccc3OC)CC1)C2 | DRD3 | radioligand binding | – | concentration not given, with: [3H]N-methylspiperone | 94.1% |
| COc1cc(-c2cc(-c3ccc(N4CCNCC4)cc3)cnc2N)cc(OC)c1OC | Protein kinase C beta type, isoform beta-I (PRKCB, Homo sapiens, UniProt P05771) | kinome profiling | – | 0.1 µM | 0% |
| O=C(COc1ccc(Cl)cc1Cl)N/N=C/c1c[nH]c2ccccc12 | 1-deoxy-D-xylulose-5-phosphate synthase (dxs, Deinococcus radiodurans, UniProt Q9RUB5) | enzyme activity, inhibitor | – | 120 µM | 30.1% |
| CCNCc1cnn(-c2ccc(-n3ccc(Cl)c(Cl)c3=O)cc2)c1C(F)(F)F | Transient receptor potential cation channel subfamily M member 8 (Trpm8, Rattus norvegicus, UniProt Q8R455) | ion current, inhibitor, whole-cell patch clamp | – | 10 µM, with: menthol-activated | no inhibition |
| O=C(Nc1cccc2c(=O)cc(-c3nnn[nH]3)oc12)c1ccc(OCCCCc2ccccc2)cc1 | Volume-regulated anion channel subunit LRRC8C, part LRRC8A IL1 chimera (LRRC8C, Homo sapiens, UniProt Q8TDW0) | ion current, inhibitor, whole-cell patch clamp | HCT LRRC8-/- cells, transfected | 0.3 µM, low ionic strength swelling, -100 mV | 3.46% and -3.72% and -3.46% and 20% |
| COc1cc2ncnc(Nc3ccc(Oc4ccccc4)cc3C)c2cc1OC | Serine/threonine-protein kinase TAO2 (TAOK2, Homo sapiens, UniProt Q9UL54) | kinase activity, inhibitor | – | 1 µM | -8% |
| C#Cc1cccc(Nc2ncnc3cc(OCCOC)c(OCCOC)cc23)c1 | Insulin-like receptor (daf-2, Caenorhabditis elegans, UniProt Q968Y9) | inhibitor, radiometric phosphocellulose | – | 10 µM, with: ATP 0.2 mM | ~24% |

| Structure (SMILES) | target | test | test system | conditions | inhibition |
| --- | --- | --- | --- | --- | --- |
| O=C(O)C1=CC(=C(c2ccc(O)c(C(=O)O)c2)c2ccc(O)c(C(=O)O)c2)C=CC1=O | Genome polyprotein NS3 helicase domain | DNA binding, inhibitor | hepatitis C virus | 100 µM, with: Cy5-dT15 DNA | 96% |
| CN(C(=O)n1cnc(-c2ccc[n+]([O-])c2)c1)C1CCCCC1 | Endothelin-1 receptor (EDNRA, Homo sapiens, UniProt P25101) | – | – | 10 µM | 4.57% |
| O=C(C[C@@H](C(F)F)n1ccc(F)n1)N1CCC(O)(Cn2cnc3c(cnn3-c3ccc(F)cc3)c2=O)CC1 | Ubiquitin carboxyl-terminal hydrolase 7 (USP7, Homo sapiens, UniProt Q93009, V517F) | enzyme activity, inhibitor | – | 5 µM | 38.2% and 27.1% |
| O=C(CN1CCO[C@H](COc2cccc(Cl)c2)C1)N1CCc2ccccc21 | DRD3 | radioligand binding | – | concentration not given, with: [3H]N-methylspiperone | 18.9% |
| COc1cccc(C(=O)NCCN2CCN(c3ccc(Cl)cc3)CC2)c1 | Genome polyprotein NS3 helicase domain | DNA binding, inhibitor | hepatitis C virus | 100 µM, with: Cy5-dT15 DNA | 0% |
| NC/C(=C\F)COc1cccc(Cn2c(=S)[nH]c(=O)c3[nH]cnc32)c1 | Amine oxidase [copper-containing] 3 (AOC3, Homo sapiens, UniProt Q16853) | H2O2 production, Amplex Red | – | 0.0412 µM, recombinant human enzyme | 83.8% and 86.8% |
| O=C1NC(=O)C(c2ccccc2)(c2ccccc2)N1 | Glutamate receptor 2 | ion current, negative allosteric modulator, SyncroPatch patch clamp | HEK293 | 10 µM | 9% |
| CNC(=O)c1cc2c(Oc3ccc(NC(=O)C4(C(=O)Nc5ccc(F)cc5)CC4)cc3)ccnc2cc1OC | Vascular endothelial growth factor receptor 2 (Mus musculus, UniProt P35918) | VEGFR2 phosphorylation | mouse, Hs746T xenograft, lung | 100 mg/kg single dose, 4 h, with: human VEGF | 100% |
| CC12CC3CC(C)(C1)CC(N)(C3)C2 | Glutamate receptor 2 | ion current, negative allosteric modulator, SyncroPatch patch clamp | HEK293 | 10 µM | 16% |
| O=C(c1ccc(Cl)cc1)N1CCN(c2ccc([N+](=O)[O-])c3ncccc23)CC1 | Genome polyprotein NS3 helicase domain | DNA binding, inhibitor | hepatitis C virus | 100 µM, with: Cy5-dT15 DNA | 0% |
| Cc1nn(-c2nc3c(F)cc(F)cc3s2)c(O)c1C(c1ccccc1C(F)(F)F)c1c(C)nn(-c2nc3c(F)cc(F)cc3s2)c1O | Cyclic GMP-AMP synthase (CGAS, Homo sapiens, UniProt Q8N884) | enzyme activity, inhibitor, pyrophosphatase-coupled | – | 100 µM, 1.5 h, with: HT-DNA | 88.8% |
| O=C(NO)c1ccc(CN2CCCCc3ccccc32)c(F)c1 | sigma-1 receptor | radioligand binding | – | 10 µM, mean | 48.8% |
| Cc1ncccc1OC[C@H]1CN(CCN2CCc3ccccc32)CCO1 | DRD3 | radioligand binding | – | concentration not given, with: [3H]N-methylspiperone | 50% |
| Cc1cc(-c2ccnc3[nH]cc(F)c23)cc(F)c1[C@@]1(O)[C@H](C)CN(C(=O)CN)C[C@@H]1C | CDK11 and CDK8 | ATP probe binding, KiNativ, refers to: Lys2 site | HEK293T cell lysate | 0.1 µM | 14.9% |
| CCC(C)N(C)C(=O)c1cc2ccccc2c(-c2ccccc2Cl)n1 (centres unmarked) | Genome polyprotein NS3 helicase domain | DNA binding, inhibitor | hepatitis C virus | 100 µM, with: Cy5-dT15 DNA | 0% |
| COc1cccc(OC[C@H]2CN(CCN3CCc4ccccc43)CCO2)c1 | DRD3 | radioligand binding | – | concentration not given, with: [3H]N-methylspiperone | 0.3% |
| CCOC(=O)N1CCC(=C2c3ccc(Cl)cc3CCc3cccnc32)CC1 | Genome polyprotein NS3 helicase domain | enzyme activity | hepatitis C virus | 100 µM | 0% |
| CN1CC(Oc2cnc(C#N)cc2-c2ccn3nc(NC(=O)C4CC4)cc3c2)C1 | Protein kinase C beta type, beta-II isoform (PRKCB, Homo sapiens, UniProt P05771) | kinase activity | – | 1 µM | -9% |
| COc1ccc(C2NCCc3cc(O)c(O)cc32)cc1O (centres unmarked) | tyrosinase | enzyme activity, inhibitor | – | 100 µM, with: levodopa | 26.7 ± 2.07% |
| Cn1c(=O)c2[nH]cnc2n(C)c1=O | KCNQ3/KCNQ2 | ion current, antagonist, SyncroPatch patch clamp | HEK293 | 3 µM | 0% |
| CCCCCCN(CCCCCC)C(=O)Cc1c(-c2ccc(F)cc2)[nH]c2ccccc12 | Genome polyprotein NS3 helicase domain | DNA binding, inhibitor | hepatitis C virus | 100 µM, with: Cy5-dT15 DNA | 1% |
| Cc1ccc2c(c1)C(=O)[C@]1(O)CCN(c3ccc4nc(C)ccc4c3)C1=N2.Cl | A-type voltage-gated potassium channel KCND3, with KChIP2 (KCND3, Homo sapiens, UniProt Q9UK17) | – | – | concentration not given | < 25% |

For quick reference, copied from above:
| Structure (SMILES) | target | test | test system | conditions | inhibition |
| --- | --- | --- | --- | --- | --- |
| Cc1ccc(CNC(=O)[C@H](CCc2ccccc2)NC(=O)[C@H](CCc2ccccc2)NC(=O)[C@H](CCc2ccccc2)NC(=O)c2cnc(C)cn2)cc1 | Tissue-type plasminogen activator (PLAT, Homo sapiens, UniProt P00750) | enzyme activity | – | 100 µM | 21% |
| COc1ccc2c(c1)C(=O)N(CCCN1CCN(c3ccccc3OC)CC1)C2 | DRD3 | radioligand binding | – | concentration not given, with: [3H]N-methylspiperone | 94.1% |
| COc1cc(-c2cc(-c3ccc(N4CCNCC4)cc3)cnc2N)cc(OC)c1OC | Protein kinase C beta type, isoform beta-I (PRKCB, Homo sapiens, UniProt P05771) | kinome profiling | – | 0.1 µM | 0% |
| O=C(COc1ccc(Cl)cc1Cl)N/N=C/c1c[nH]c2ccccc12 | 1-deoxy-D-xylulose-5-phosphate synthase (dxs, Deinococcus radiodurans, UniProt Q9RUB5) | enzyme activity, inhibitor | – | 120 µM | 30.1% |
